Measurements collected from several papers.
Compare with care: the assays were run in different laboratories. Numbers after ± are the reported error.

NC(=O)c1cccc2cn(-c3ccc([C@@H]4CCCNC4)cc3)nc12
IC50 (A549 wild type; PARylation, inhibitor): 0.0167 µM

Nc1nnc(-c2ccccc2O)cc1N1CC2CCC(C1)N2c1ccnc(F)c1
IC50 (normal prostate epithelial cells; cell viability, CellTiter-Glo; 168 h): > 1 µM

Cn1ncnc1[C@H]1c2n[nH]c(=O)c3cc(F)cc(c23)N[C@@H]1c1ccc(F)cc1
IC50 (A549 wild type; PARylation, inhibitor): 0.0051 µM

Cc1nc(NC(=O)N2CCC[C@H]2C(N)=O)sc1-c1ccnc(C(C)(C)C(F)(F)F)c1
IC50 (HCC1954; western blot, item: phospho-S6 Ser235/Ser236; 2 h): 0.222 µM

CC(=O)c1c(O)c(C)c(O)c2c1OC1=CC(=O)C(C(C)=O)C(=O)C12C (single isomer, unassigned; (+))
IC50 (hepatocytes, iPSC-derived, line W1; cell viability; 24 h): 28 µM

Cc1nc(-c2cn3c(n2)-c2ccc(-c4cnn(C(C)(C)C(N)=O)c4)cc2OCC3)n(C(C)C)n1
IC50 (SW48 PIK3CA H1047R; 96 h): 0.00761 µM

CCCCCN1C[C@H](O)[C@@H](O)[C@H](O)[C@@H]1CO
IC50 (GM2 AB-variant fibroblasts; lysosomal accumulation, LysoTracker staining; 8 days): 1.7 µM

Cc1ncsc1-c1ccc(CNC(=O)[C@@H]2C[C@@H](O)CN2C(=O)[C@@H](NC(=O)C2(F)CC2)C(C)(C)C)c(OCCOc2ccc(CN3CCN(c4cc(-c5ccccc5O)nnc4N)CC3)cc2)c1
IC50 (NCI-H522 SMARCA4/SMARCA2-deficient; cell viability, CellTiter-Glo; 7 days): > 1 µM

CCN(CC)Cc1ccc2cc(COC(=O)Nc3ccc(C(=O)NO)cc3)ccc2c1
viability (OCI-Ly1; 1 µM, 120 h): 1.3%

CCOc1cc2ncc(C#N)c(Nc3ccc(OCc4ccccn4)c(Cl)c3)c2cc1NC(=O)/C=C/CN(C)C
IC50 (Ba/F3 expressing HER2 L755A; cell growth, inhibitor, CellTiter-Glo): 0.0053 µM

COc1cc2c(c(OC)c1OC)-c1ccc(OC)c(=O)cc1[C@@H](NC(C)=O)CC2
IC50 (HeLa expressing wild-type P-gp; CellTiter-Glo; 48 h): 0.03 ± 0.0007 µM

Cc1cc(Nc2ncc(Cl)c(Nc3ccccc3S(=O)(=O)C(C)C)n2)c(OC(C)C)cc1C1CCNCC1
IC50 (Ba/F3 EML4-ALK v3, no mutation; cell viability): 0.0107 µM

NC(=O)c1ccc(I)c([N+](=O)[O-])c1
viability (OCI-Ly1; 0.1 µM, 120 h): 195%

COC[C@H](NC(=O)c1ccn(S(C)(=O)=O)c1)C(=O)Nc1nc(-c2cccc(N3C[C@@H](C)O[C@@H](C)C3)n2)cs1
IC50 (normal prostate epithelial cells; cell viability, CellTiter-Glo; 168 h): 0.27 µM

COc1ccc(F)cc1C(=O)NCc1ccc(-c2nn([C@@H](C)C(F)(F)F)c(N)c2C(N)=O)cc1
IC50 (Rec1; item: IFNα2; 24 h): > 0.1 µM

Cc1c(C)c2c(c(C)c1O)CCC(C)(COc1ccc(CC3SC(=O)NC3=O)cc1)O2 (stereo not shown)
IC50 (hepatocytes, iPSC-derived, line W1; cell viability, RealTime-Glo MT; 48 h, differentiation day 23): 24 µM

C=CC(=O)N1CCC(COCC(=O)N2CCN(c3nc(-c4cnc(N)nc4C(F)F)nc(N4CCOC[C@@H]4C)n3)CC2)CC1
IC50 (HCC1954; western blot, item: phospho-PKB/Akt Ser473; 2 h): 0.0332 µM

C=CCN(C)CCCCCCOc1ccc(C(=O)c2ccc(Br)cc2)c(F)c1
IC50 (mouse Mut6 cells; cell viability, CellTiter-Glo; 96 h): 0.0112 µM

N[C@@H](CC(=O)N1CCN(C(c2ccc(F)cc2)c2ccc(F)cc2)CC1)C(=O)N1Cc2ccccc2C1
IC50 (MV4-11; cell viability, CellTiter-Glo; day 5): 1.7 µM

O=C(O)COCC(=O)O
IC50 (hepatocytes, iPSC-derived, line W1; cell viability, RealTime-Glo MT; 24 h, differentiation day 23): 10200 µM

C[C@H]1Oc2cc(cnc2N)-c2c(nn(C)c2C#N)CN(C)C(=O)c2ccc(F)cc21
IC50 (Ba/F3 EML4-ALK v3, no mutation; cell viability): 0.002 µM

CC(C)(C)Cn1c(N)nc2ccc(-c3[nH]c(C(C)(C)C)nc3-c3ccc(F)cc3)nc21
IC50 (Ba/F3 expressing EGFR L858R/T790M; cell viability; without IL-3): 5.2 µM

C=C1CC[C@@H]2[C@](C)(CCC[C@]2(C)C(=O)O)[C@H]1CC/C(C)=C/CO
IC50 (neuroblastoma M2, no MYCN induction; cell viability, SRB; without doxycycline): 1.99 µg/mL

CO[C@H]1[C@H](O[C@H]([C@H]2O[C@@H](n3ccc(=O)[nH]c3=O)[C@H](O)[C@@H]2O)[C@H](NCCCNC(=O)[C@@H](NC(=O)[C@@H](NC(=O)N[C@H](C(=O)O)C(C)C)[C@@H]2CCN=C(N)N2)[C@@H](OC(=O)CCCCCCCCCCCCN(O)C(=N)N)C(C)C)C(=O)O)O[C@H](CN)[C@H]1O
IC50 (MCF-10A and Vero; cell viability, WST-1; range over panel): > 35 µM

Cc1cc(N2CCc3c(c(C)nn3CC34CCC(NC(=O)[C@@H]5COCCN5)(CC3)CC4)C2)c2cnn(C)c2n1
IC50 (human PBMC; qRT-PCR, item: RSAD2 mRNA; together with: ssRNA): 0.0008 ± 0.0001 µM

C[C@H](Nc1ccc2c(c1)OCCn1cc(N3C(=O)OC[C@H]3C(F)F)nc1-2)C(N)=O
IC50 (HCC1954; western blot, item: phospho-S6 Ser235/Ser236; 2 h): 0.0331 µM

COc1cc2nccc(Oc3ccc(NC(=O)C4(C(=O)Nc5ccc(F)cc5)CC4)cc3)c2cc1OC
IC50 (SUP-M2 (NPM-ALK); cell growth; 3 days): 7 ± 0.76 µM

CN1CCC(NC2CCc3[nH]c4c(C(N)=O)ccc(-c5ccccc5Cl)c4c3C2)CC1 (stereo not shown)
IC50 (A549/DDP, cisplatin-resistant; cell growth, CellTiter-Glo; 96 h): 0.005 µM

C=CC(=O)NC1CCN(c2ncc3ncnc(Nc4ccc(Oc5ccc6c(c5)ncn6C)c(C)c4)c3n2)CC1
IC50 (Ba/F3 expressing HER2 L755A; cell growth, inhibitor, CellTiter-Glo): 0.0217 µM

COc1cc(-c2cc(-c3ccc(N4CCNCC4)cc3)cnc2C)cc(OC)c1OC
IC50 (C2C12 BRE-Luc; reporter gene, inhibitor; together with: BMP6): 0.067 µM

COc1cccc2c1C(=O)c1c(O)c3c(c(O)c1C2=O)C[C@@](O)(C(=O)CO)C[C@@H]3O[C@H]1C[C@H](N)[C@H](O)[C@H](C)O1
IC50 (HC-11; cell growth, WST-1; 72 h): 0.02 µM

Cc1ccc(C(=O)N(CCCN)[C@@H](c2nc3cc(Cl)ccc3c(=O)n2Cc2ccccc2)C(C)C)cc1
IC50 (human CD34+ haematopoietic cells; cell viability, CellTiter-Glo; 3 days): 0.0045 ± 0.001 µM

Cc1c(C(=O)O)ccc2c3n(nc12)[C@@H]1[C@H](C3)N(CC2CC2)[C@@]2(C(=O)Nc3cc(Cl)ccc32)[C@H]1c1cccc(Cl)c1F
IC50 (human megakaryocyte progenitors; megakaryocyte colony formation; 10 to 12 days): 0.025 µM

Cc1ncsc1-c1ccc([C@H](C)NC(=O)[C@@H]2C[C@@H](O)CN2C(=O)[C@@H](NC(=O)CN2CCN(c3cc(-c4ccccc4O)nnc3N)CC2)C(C)(C)C)cc1
IC50 (NCI-H522 SMARCA4/SMARCA2-deficient; cell viability, CellTiter-Glo; 7 days): > 1 µM

CC[C@@H](C)[C@H](N)C(=O)N1Cc2ccccc2C1
IC50 (MV4-11; cell viability, CellTiter-Glo; day 5): 1.4 µM

C[C@H](Nc1ccc2c(c1)OCCn1cc(N3C(=O)OC[C@H]3C(F)F)nc1-2)C(N)=O
IC50 (KPL4; CellTiter-Glo; 120 h): 0.0606 µM

Cc1nc(NC(=O)N2CCC[C@H]2C(N)=O)sc1-c1ccnc(C(C)(C)C(F)(F)F)c1
IC50 (SW48 PIK3CA H1047R; 96 h): 0.14 µM

CC(=O)O[C@H]1C(=O)[C@@]2(C)[C@H]([C@H](OC(=O)c3ccccc3)[C@]3(O)C[C@H](OC(=O)[C@H](O)[C@@H](NC(=O)c4ccccc4)c4ccccc4)C(C)=C1C3(C)C)[C@]1(OC(C)=O)CO[C@@H]1C[C@@H]2O
IC50 (HeLa expressing wild-type P-gp; CellTiter-Glo; 48 h): 0.081 ± 0.008 µM

C[C@]1(c2nc3c(C(N)=O)cccc3[nH]2)CCCN1
IC50 (A549 wild type; PARylation, inhibitor): 0.0328 µM

CCCCN1C[C@H](O)[C@@H](O)[C@@H](O)[C@H]1CO
IC50 (sample A patient fibroblasts; Gb3 level lowering, LC-MS/MS, item: Gb3 d18:1/18:0; 216 h): 11 µM

CN(C)C/C=C/C(=O)Nc1cc2c(Nc3ccc(F)c(Cl)c3)ncnc2cc1O[C@H]1CCOC1
IC50 (A-431): 1.21 ± 0.02 µM

COc1cc(N2CCC(N3CCN(C)CC3)CC2)ccc1Nc1ncc(Cl)c(Nc2ccccc2S(=O)(=O)C(C)C)n1
IC50 (SUP-M2 (NPM-ALK); cell growth; 3 days): 0.02 ± 0.004 µM

CC[C@]1(O)C[C@H]2CN(CCc3c([nH]c4ccccc34)[C@@](C(=O)OC)(c3cc4c(cc3OC)N(C=O)[C@H]3[C@@](O)(C(=O)OC)[C@H](OC(C)=O)[C@]5(CC)C=CCN6CC[C@]43[C@@H]65)C2)C1
IC50 (CHP-212 resistant subline R2 (USP7 V517F heterozygous); cell viability): 0.0235 µM
